Assay results collected from several papers.
Parts stem from different laboratories: compare values within a part only. Values joined by “and” are separate records of one study, mostly repeats; a detail may differ.
Sequence of UniProt P00519 (whole entry, unmodified, looked up): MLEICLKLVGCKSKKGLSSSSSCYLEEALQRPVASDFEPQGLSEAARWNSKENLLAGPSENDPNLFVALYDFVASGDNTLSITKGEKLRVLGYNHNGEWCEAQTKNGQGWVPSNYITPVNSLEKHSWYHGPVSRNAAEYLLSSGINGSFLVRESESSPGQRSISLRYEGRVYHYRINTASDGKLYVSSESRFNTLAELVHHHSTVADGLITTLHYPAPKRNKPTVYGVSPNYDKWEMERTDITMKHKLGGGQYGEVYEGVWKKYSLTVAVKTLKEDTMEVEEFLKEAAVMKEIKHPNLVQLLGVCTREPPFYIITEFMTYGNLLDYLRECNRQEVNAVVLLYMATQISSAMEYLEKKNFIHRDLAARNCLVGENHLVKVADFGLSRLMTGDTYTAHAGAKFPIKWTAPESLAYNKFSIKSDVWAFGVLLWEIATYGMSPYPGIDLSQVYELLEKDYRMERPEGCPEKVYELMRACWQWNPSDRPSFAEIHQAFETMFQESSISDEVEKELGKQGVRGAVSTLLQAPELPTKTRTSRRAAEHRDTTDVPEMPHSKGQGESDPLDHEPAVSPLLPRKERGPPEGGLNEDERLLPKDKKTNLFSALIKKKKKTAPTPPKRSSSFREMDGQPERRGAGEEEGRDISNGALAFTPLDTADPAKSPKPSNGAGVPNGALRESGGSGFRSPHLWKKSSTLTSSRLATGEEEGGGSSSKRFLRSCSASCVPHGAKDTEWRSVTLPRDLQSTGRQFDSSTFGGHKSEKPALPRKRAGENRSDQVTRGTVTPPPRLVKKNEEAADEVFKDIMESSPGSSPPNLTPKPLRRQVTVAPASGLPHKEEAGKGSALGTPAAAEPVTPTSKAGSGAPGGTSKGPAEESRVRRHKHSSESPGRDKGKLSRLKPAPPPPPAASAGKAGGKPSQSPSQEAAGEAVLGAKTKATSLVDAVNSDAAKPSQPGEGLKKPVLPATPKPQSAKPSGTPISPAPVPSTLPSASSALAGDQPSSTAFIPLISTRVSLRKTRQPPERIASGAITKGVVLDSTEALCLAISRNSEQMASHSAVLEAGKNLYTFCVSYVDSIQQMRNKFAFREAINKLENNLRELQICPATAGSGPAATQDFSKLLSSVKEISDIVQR
Sequence of UniProt P0C264 (whole entry, looked up): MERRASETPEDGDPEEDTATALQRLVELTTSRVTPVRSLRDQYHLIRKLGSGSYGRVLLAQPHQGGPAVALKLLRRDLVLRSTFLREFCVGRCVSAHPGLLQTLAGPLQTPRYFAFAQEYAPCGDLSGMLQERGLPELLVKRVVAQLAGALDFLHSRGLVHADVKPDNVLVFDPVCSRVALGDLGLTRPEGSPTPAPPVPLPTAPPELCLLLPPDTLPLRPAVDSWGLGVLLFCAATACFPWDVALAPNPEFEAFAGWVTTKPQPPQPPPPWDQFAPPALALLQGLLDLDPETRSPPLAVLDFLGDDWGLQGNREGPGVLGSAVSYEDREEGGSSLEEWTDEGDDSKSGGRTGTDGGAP
Sequence of UniProt O43353 (whole entry, looked up): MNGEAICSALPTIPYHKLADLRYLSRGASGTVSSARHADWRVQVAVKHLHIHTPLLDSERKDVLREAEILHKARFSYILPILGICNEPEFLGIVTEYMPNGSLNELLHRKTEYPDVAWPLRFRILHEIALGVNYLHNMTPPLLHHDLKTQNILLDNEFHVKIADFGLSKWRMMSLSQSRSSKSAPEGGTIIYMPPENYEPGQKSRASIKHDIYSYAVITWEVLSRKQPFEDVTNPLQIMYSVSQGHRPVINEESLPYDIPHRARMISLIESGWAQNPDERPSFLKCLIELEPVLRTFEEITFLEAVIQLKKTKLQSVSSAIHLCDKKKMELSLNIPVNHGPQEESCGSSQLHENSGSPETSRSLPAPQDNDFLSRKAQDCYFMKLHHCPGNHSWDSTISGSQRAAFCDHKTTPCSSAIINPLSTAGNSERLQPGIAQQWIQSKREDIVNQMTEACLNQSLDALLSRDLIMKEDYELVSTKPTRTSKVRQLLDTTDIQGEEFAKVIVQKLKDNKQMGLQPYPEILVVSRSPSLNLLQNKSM

Study 1
Target: DNA polymerase theta, ATPase domain (POLQ, Homo sapiens, UniProt O75417)
Sequence of UniProt O75417 (whole entry, unmodified, looked up): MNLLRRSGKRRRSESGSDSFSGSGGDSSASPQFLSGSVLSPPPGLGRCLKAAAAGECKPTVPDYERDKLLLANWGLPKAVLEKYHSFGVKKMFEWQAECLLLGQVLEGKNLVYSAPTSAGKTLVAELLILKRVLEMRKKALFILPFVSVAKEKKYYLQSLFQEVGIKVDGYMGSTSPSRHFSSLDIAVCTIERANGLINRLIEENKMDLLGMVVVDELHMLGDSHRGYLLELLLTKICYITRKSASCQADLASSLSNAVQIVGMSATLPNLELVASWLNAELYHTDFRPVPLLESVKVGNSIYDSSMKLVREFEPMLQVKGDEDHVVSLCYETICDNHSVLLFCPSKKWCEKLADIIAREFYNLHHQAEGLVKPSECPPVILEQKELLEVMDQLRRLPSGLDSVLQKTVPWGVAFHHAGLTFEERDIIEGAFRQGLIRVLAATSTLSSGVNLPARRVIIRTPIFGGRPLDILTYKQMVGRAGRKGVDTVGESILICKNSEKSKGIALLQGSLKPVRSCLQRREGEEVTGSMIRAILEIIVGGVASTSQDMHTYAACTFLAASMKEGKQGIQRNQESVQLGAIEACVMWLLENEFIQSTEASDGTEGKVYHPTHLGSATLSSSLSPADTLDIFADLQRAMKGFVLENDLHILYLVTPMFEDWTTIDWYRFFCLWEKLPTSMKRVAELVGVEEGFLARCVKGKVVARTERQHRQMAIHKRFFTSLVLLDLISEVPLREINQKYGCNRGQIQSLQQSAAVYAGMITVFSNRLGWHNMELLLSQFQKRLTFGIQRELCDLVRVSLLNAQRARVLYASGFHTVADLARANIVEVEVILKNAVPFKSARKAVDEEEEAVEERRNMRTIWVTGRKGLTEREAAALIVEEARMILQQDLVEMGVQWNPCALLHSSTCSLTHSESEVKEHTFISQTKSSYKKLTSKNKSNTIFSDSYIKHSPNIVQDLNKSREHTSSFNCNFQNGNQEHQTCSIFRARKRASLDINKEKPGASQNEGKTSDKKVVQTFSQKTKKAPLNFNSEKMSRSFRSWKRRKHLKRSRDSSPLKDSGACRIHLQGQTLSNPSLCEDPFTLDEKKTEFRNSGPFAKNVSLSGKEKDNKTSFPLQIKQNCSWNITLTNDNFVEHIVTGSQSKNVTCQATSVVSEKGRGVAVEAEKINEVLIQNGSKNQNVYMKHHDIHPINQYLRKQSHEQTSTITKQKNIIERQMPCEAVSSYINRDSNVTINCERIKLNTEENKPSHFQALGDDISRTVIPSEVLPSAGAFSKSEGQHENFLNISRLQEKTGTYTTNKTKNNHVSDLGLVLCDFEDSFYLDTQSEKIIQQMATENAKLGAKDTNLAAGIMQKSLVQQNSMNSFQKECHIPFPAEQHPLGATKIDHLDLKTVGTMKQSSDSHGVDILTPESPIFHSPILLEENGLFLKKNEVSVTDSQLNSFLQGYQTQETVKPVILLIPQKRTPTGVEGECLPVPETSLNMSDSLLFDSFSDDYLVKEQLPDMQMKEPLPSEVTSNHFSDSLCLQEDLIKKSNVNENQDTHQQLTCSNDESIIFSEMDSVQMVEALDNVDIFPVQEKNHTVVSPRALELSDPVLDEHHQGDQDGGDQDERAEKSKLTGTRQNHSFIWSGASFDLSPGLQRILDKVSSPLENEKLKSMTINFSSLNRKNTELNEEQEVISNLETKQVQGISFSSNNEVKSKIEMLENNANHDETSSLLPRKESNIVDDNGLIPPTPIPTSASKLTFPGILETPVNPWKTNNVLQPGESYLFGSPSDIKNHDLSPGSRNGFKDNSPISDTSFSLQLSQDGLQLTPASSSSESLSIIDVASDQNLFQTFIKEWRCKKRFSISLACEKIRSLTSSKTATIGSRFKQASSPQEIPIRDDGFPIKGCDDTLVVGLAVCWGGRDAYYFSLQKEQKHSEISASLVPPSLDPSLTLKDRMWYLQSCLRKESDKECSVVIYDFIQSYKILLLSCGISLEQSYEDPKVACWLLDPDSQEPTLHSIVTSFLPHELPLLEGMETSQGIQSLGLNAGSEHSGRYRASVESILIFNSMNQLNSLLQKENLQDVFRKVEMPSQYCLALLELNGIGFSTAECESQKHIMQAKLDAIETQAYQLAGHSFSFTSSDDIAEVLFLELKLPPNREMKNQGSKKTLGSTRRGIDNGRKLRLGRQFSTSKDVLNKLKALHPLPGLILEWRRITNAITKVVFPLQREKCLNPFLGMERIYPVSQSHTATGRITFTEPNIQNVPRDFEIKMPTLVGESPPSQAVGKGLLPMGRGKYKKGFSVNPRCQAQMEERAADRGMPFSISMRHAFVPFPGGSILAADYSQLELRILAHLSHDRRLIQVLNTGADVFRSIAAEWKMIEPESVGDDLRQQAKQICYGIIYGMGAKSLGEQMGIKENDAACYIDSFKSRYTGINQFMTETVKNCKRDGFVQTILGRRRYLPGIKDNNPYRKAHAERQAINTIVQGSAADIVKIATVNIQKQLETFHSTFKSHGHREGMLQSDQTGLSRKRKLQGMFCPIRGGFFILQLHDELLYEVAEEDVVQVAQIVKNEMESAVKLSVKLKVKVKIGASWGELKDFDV
Observed: enzyme activity
Action: inhibitor
Tested at: 77 µM
Reference: untreated
SMILES	remaining activity
C=C[C@@]1(C)CC(=O)[C@]2(O)[C@@]3(C)[C@@H](O)CCC(C)(C)[C@@H]3[C@H](O)[C@H](OC(C)=O)[C@@]2(C)O1	108%
OCCN1CCN(CCCN2c3ccccc3C=Cc3ccccc32)CC1	128%
Cn1nnnc1SCC1=C(C(=O)O)N2C(=O)[C@@H](NC(=O)[C@H](O)c3ccccc3)[C@H]2SC1	100%
N#Cc1ccc(C(c2ccc(C#N)cc2)n2cncn2)cc1	95.6% and 101%
CC(=O)SCC[N+](C)(C)C	101%
COc1ccc(-c2cc(=O)c3c(OC)c(OC)c(OC)c(OC)c3o2)cc1	71.4%
O=C1CC2(CCCC2)CC(=O)N1CCCCN1CCN(c2ncccn2)CC1	98.8%
O=C1CC[C@@H](C(=O)N2CSC[C@H]2C(=O)O)N1	99.4%
COc1cc(/C=C(\C#N)C(=O)c2ccc(O)c(O)c2)cc(I)c1O	84%
CN1CCC[C@@H]1Cc1c[nH]c2ccc(CCS(=O)(=O)c3ccccc3)cc12	108%
O=C(Nc1cccc(Cl)c1)Nc1ncc(CCNc2ncnc3ccsc23)s1	83.8%

Study 2
Target: Calcium/calmodulin-dependent protein kinase type II subunit alpha (CAMK2A, Homo sapiens, UniProt Q9UQM7)
Sequence of UniProt Q9UQM7 (whole entry, looked up): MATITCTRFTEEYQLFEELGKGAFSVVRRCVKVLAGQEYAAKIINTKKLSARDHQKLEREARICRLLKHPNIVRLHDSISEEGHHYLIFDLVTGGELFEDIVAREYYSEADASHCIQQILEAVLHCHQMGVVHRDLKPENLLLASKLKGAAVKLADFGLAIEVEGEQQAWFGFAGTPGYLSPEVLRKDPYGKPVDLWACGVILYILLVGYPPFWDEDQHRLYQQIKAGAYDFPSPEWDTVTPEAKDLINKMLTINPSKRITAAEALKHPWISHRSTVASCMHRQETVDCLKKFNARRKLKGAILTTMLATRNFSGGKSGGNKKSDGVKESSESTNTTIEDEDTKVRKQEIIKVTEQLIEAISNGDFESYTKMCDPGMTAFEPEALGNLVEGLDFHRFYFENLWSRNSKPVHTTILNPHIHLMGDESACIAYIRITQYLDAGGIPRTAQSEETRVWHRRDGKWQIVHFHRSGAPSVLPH
Observed: enzyme activity
Action: inhibitor
Tested at: 10 µM
SMILES	inhibition
CC[C@H](C)[C@H](N)C1=N[C@H](C(=O)N[C@@H](CC(C)C)C(=O)N[C@H](CCC(=O)O)C(=O)N[C@H](C(=O)N[C@H]2CCCCNC(=O)[C@H](CC(N)=O)NC(=O)[C@@H](CC(=O)O)NC(=O)[C@H](Cc3cnc[nH]3)NC(=O)[C@@H](Cc3ccccc3)NC(=O)[C@H]([C@@H](C)CC)NC(=O)[C@@H](CCCN)NC2=O)[C@@H](C)CC)CS1	3%
CC(=O)O[C@H](CC(=O)[O-])C[N+](C)(C)C	-12%
C[C@@H]1CC[C@@H]2O[C@@]23C(=O)C(=O)[C@@H]2[C@@H](C2(C)C)[C@@]13C	-3%
COc1ccccc1C=CC=O	16%
O=C1C(CC[S+]([O-])c2ccccc2)C(=O)N(c2ccccc2)N1c1ccccc1 (stereo not shown)	-14%
O=C(O)c1ccc[nH]1	1%
C=C(C)[C@@H]1CC[C@]2(C)CC[C@]3(C)[C@H](CC[C@@H]4[C@@]5(C)CCC(=O)C(C)(C)[C@@H]5CC[C@]43C)[C@@H]12	3%
COC(=O)C[C@H]1[C@]2(C)C3=C(C)[C@H](c4ccoc4)C[C@H]3O[C@@H]2[C@@H]2OC(=O)[C@]3(C)C=CC(=O)[C@@]1(C)[C@@H]23	-21%
C=C[C@H](O)CC(=NOS(=O)(=O)O)S[C@@H]1O[C@H](CO)[C@@H](O)[C@H](O)[C@H]1O	-14%
CCCNC(C)C(=O)Nc1c(C)csc1C(=O)OC (stereo not shown)	-7%
CC(=O)NCCCC[C@H](N)C(=O)O	9%
Cc1cc(O)c2c(c1)C(=O)c1cccc(O[C@@H]3O[C@H](CO)[C@@H](O)[C@H](O)[C@H]3O)c1C2=O	-8%
COc1cc2c(c(OC)c1OC)-c1c(cc3c(c1O)OCO3)C[C@H](C)[C@@H](C)C2	17%
C[C@@H]1CC[C@@]2(OC1)O[C@H]1C[C@H]3[C@@H]4CC=C5C[C@@H](O)C[C@@H](O[C@@H]6O[C@H](C)[C@H](O)[C@H](O[C@@H]7OC[C@@H](O)[C@H](O)[C@H]7O)[C@H]6O[C@@H]6O[C@H](CO)[C@@H](O)[C@H](O)[C@H]6O)[C@]5(C)[C@H]4CC[C@]3(C)[C@H]1[C@@H]2C	6%
CC(=O)N[C@@H](Cc1cnc[nH]1)C(=O)O	-7%
CC(C)(O[C@@H]1O[C@H](CO)[C@@H](O)[C@H](O)[C@H]1O)[C@@H]1CC[C@](O)(CO)[C@H]2CC(=O)[C@@](C)(O)[C@@H]2C1	0%
CCCCCCC/C=C\C(=O)O	-7%
Fc1ccc(-c2ccc3c(c2)[nH]c2ccncc23)cn1	-3%

Study 3
Compound: CNCc1ccccc1-c1csc([C@H](C)Nc2nc(C)nc3cc(OC)c(OC)cc23)c1
Method: competition with immobilised ligand
Tested at: 1 µM
target	observed	remaining binding [%]
SBK3 (Homo sapiens, UniProt P0C264)	cell-free assay	100
PAK3 (Homo sapiens, UniProt O75914)	cell-free assay	87
WEE2 (Homo sapiens, UniProt P0C1S8)	cell-free assay	100
EGFR (Homo sapiens, UniProt P00533, G719S)	cell-free assay	84
PRKACB (Homo sapiens, UniProt P22694)	cell-free assay	100
PDPK1 (Homo sapiens, UniProt O15530)	cell-free assay	100
GRK7 (Homo sapiens, UniProt Q8WTQ7)	cell-free assay	89
RET (Homo sapiens, UniProt P07949, V804L)	cell-free assay	99
MARK3 (Homo sapiens, UniProt P27448)	cell-free assay	100
Tyrosine-protein kinase ABL1, phosphorylated (ABL1, Homo sapiens, UniProt P00519, F317L)	cell-free assay	100
PRKACA (Homo sapiens, UniProt P17612)	cell-free assay	100
Tyrosine-protein kinase ABL1, non-phosphorylated (ABL1, Homo sapiens, UniProt P00519, F317I)	binding	100
CSK (Homo sapiens, UniProt P41240)	cell-free assay	100
RIPK2 (Homo sapiens, UniProt O43353)	cell-free assay	100
STK32C (Homo sapiens, UniProt Q86UX6)	cell-free assay	71
STK17A (Homo sapiens, UniProt Q9UEE5)	cell-free assay	100
STK33 (Homo sapiens, UniProt Q9BYT3)	cell-free assay	73
INSRR (Homo sapiens, UniProt P14616)	cell-free assay	93

Study 4
Target: Serine/threonine-protein kinase haspin (HASPIN, Homo sapiens, UniProt Q8TF76)
Observed: enzyme activity
Action: inhibitor
Tested at: 0.5 µM
Reference: control
Residues (Q8TF76 1-798): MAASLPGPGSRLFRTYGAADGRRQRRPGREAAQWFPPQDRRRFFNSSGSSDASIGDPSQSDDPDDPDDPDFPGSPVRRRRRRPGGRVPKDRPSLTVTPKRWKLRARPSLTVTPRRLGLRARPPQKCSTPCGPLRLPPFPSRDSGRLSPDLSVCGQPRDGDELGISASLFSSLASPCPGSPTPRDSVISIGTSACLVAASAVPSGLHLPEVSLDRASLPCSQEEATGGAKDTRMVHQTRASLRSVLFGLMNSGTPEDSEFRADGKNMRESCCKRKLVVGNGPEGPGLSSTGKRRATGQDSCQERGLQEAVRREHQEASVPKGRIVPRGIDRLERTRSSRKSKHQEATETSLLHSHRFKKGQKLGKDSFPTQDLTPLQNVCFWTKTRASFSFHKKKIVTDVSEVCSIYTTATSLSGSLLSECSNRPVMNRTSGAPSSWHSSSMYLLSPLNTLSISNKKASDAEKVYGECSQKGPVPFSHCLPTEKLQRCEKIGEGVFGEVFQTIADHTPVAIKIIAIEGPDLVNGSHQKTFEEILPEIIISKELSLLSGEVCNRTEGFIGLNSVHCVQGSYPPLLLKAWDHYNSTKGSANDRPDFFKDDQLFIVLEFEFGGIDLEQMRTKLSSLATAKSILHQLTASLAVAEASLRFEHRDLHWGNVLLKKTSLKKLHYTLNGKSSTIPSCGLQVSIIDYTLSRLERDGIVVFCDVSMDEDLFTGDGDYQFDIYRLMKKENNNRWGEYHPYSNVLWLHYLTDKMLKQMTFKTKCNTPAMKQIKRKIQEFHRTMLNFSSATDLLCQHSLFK
Compound	remaining activity [%]
CCN(CC)CCNC(=O)c1c(C)[nH]c(/C=C2\C(=O)Nc3ccc(F)cc32)c1C	53.2
COc1cc2ncnc(Nc3cccc(Cl)c3)c2cc1OC	84.8
Cc1nc2cc3nc(-c4cccs4)cnc3cc2n1C	108
O=C(NC(NC(=S)Nc1ccc(F)c([N+](=O)[O-])c1)C(Cl)(Cl)Cl)C(c1ccccc1)c1ccccc1 (stereo not shown)	109
Cc1cn(-c2cc(NC(=O)c3ccc(C)c(Nc4nccc(-c5cccnc5)n4)c3)cc(C(F)(F)F)c2)cn1	66.5
c1ccc(-c2cnc(Nc3ccc(OCCN4CCCC4)cc3)s2)cc1	106
O=C1c2ccccc2-c2n[nH]c3cccc1c23	35.3
N#C/C(=C\c1ccc(O)c(O)c1)C(=O)NCc1ccccc1	104
Ic1cccc(CSc2nnc(-c3ccncc3)o2)c1	95.9
COc1cc2ncnc(Nc3ccc(O)c(Br)c3)c2cc1OC	84.8
COc1cc2c(cc1OC)-c1[nH]nc(Nc3cccc(F)c3)c1C2	84.8
CCOc1nc(NC(=O)Cc2cc(OC)ccc2OC)cc(N)c1C#N	98.9
CN([C@@H](Cc1ccc(OS(=O)(=O)c2cccc3cnccc23)cc1)C(=O)N1CCN(c2ccccc2)CC1)S(=O)(=O)c1cccc2cnccc12	94.7
c1ccc(-c2[nH]ncc2-c2ccnc3ccccc23)nc1	90.8
O=C1C(Cl)=C(N2C(=O)CCC2=O)C(=O)c2ccccc21	101
N#Cc1c(NC(=O)c2cccc3ccccc23)sc2c1CCCC2	99
CCN(CC)C(=O)c1ccc(Nc2nc(OCC3CCCCC3)c3[nH]cnc3n2)cc1	94.1
O=C(Nc1cccc(Nc2nccc(Nc3cccc(C(F)(F)F)c3)n2)c1)C1CC1	101
Nc1cccc(-c2cc3c(Oc4cccc(O)c4)ncnc3[nH]2)c1	93.3
Cn1nc2c3c(cccc31)C(=O)c1ccccc1-2	53.1
Cc1cc2ncc(-c3ccccc3)nc2cc1C	91.5
C[C@@H]1CCN(C(=O)CC#N)C[C@@H]1N(C)c1ncnc2[nH]ccc12	77.9
CN(C)C[C@H]1CCn2c(c(C3=C(c4cn(C)c5ccccc45)C(=O)NC3=O)c3ccccc32)C1	100
